Assay results from different studies.
Each line is one published result; not all experiments were run side by side. Values joined by “and” are separate records of one study, mostly repeats; a detail may differ. ± gives the spread as reported.
rep papain-like protease: Replicase polyprotein 1ab, papain-like protease (rep, Severe acute respiratory syndrome-related coronavirus, UniProt P0C6X7)
rep main protease: Replicase polyprotein 1ab, main protease (rep, Severe acute respiratory syndrome-related coronavirus, UniProt P0C6X7)
OPRD1: Delta-type opioid receptor (OPRD1, Homo sapiens, UniProt P41143)
Chain of UniProt P41143 (whole entry, looked up): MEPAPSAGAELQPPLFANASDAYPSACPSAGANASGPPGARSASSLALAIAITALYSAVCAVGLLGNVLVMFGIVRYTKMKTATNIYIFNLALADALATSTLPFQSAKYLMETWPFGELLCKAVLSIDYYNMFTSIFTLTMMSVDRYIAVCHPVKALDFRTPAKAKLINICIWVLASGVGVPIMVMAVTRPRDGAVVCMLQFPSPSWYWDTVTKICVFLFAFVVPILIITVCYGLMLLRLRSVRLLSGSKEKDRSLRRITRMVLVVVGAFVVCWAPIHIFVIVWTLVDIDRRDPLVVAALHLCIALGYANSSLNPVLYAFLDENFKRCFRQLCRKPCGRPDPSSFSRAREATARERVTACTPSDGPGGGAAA

Structure (SMILES)	tested on	test	system	conditions	endpoint	result
CCC(C(=O)Nc1ccccc1C)n1c(SCc2ccc(F)cc2)nc2cccnc21 (stereo not drawn)	rep papain-like protease	enzyme activity	–	–	IC50	> 20 µM
O=C(NCCc1cccc(F)c1)[C@@H](c1cncnc1)N(C(=O)[C@H](F)Cl)c1ccc(S(F)(F)(F)(F)F)cc1	rep main protease	enzyme activity, inhibitor, biochemical	SARS-CoV-1	–	IC50	0.094 µM
CCOC(=O)/C=C/C(C[C@@H]1CCNC1=O)NC(=O)[C@@H](CC(=O)C(NC(=O)OCc1ccccc1)C(C)C)Cc1ccccc1 (stereo partly drawn)	rep main protease	enzyme activity, inhibitor	–	–	IC50	> 100 µM
CC(C)C[C@H](NC(=O)[C@H](CO[C@@H]1O[C@H](CO)[C@@H](O)[C@H](O)[C@H]1O)NC(=O)[C@H](CCCCN)NC(=O)[C@H](CC(C)C)NC(=O)[C@H](C)NC(=O)[C@H](CCCCN)NC(=O)[C@H](CCC(=O)O)NC(=O)CNC(=O)[C@H](CC(C)C)NC(=O)[C@H](CC(N)=O)NC(=O)[C@@H]1CCCN1C(=O)[C@H](CC(C)C)NC(=O)[C@H](Cc1ccccc1)NC(=O)CNC(=O)[C@H](NC(=O)[C@@H](N)Cc1ccc(O)cc1)[C@H](C)O)C(N)=O	OPRD1	ligand displacement, radioligand	–	pH 7.5, cell membranes	Ki	0.0057 µM
CCOC(=O)/C=C/C(Cc1ccccc1)NC(=O)[C@@H](CC(=O)C(NC(=O)c1cc(C)on1)C(C)C)Cc1ccc(F)cc1 (stereo partly drawn)	rep main protease	enzyme activity, inhibitor	–	–	IC50	39 µM
CSCC[C@@H](C=O)NC(=O)[C@H](CC(C)C)NC(=O)[C@H](CC(C)C)NC(C)=O	rep main protease	enzyme activity, inhibitor	–	–	IC50	2.04 µM
CCC(C(=O)Nc1ccc(C)cc1)n1cccc2nc(SCc3ccc(F)cc3)nc1-2 (stereo not drawn)	rep papain-like protease	enzyme activity	–	–	IC50	> 20 µM
C=CC(=O)NC(CC(=C)C)C(=O)N1CC(C(=O)NC(Cc2ccccc2)C(=O)NC)C(c2cccc(C(F)(F)F)c2)C1 (stereo not drawn)	rep main protease	enzyme activity, inhibitor	–	–	IC50	3.5 µM
CCOC(=O)/C=C/C(C[C@@H]1CCNC1=O)NC(=O)[C@@H](CC(=O)C(NC(=O)c1cc(C)on1)C(C)C)Cc1ccccc1 (stereo partly drawn)	rep main protease	enzyme activity, inhibitor	–	–	IC50	> 100 µM
C=CC(=O)NC(CC(=C)C)C(=O)N1CC(C(=O)NC(Cc2ccco2)C(=O)NC)C(c2cccc(C(F)(F)F)c2)C1 (stereo not drawn)	rep main protease	enzyme activity, inhibitor	–	–	IC50	47.8 µM
O=c1cc(C(F)(F)F)c2ccc(O)cc2o1	rep papain-like protease	enzyme activity, inhibitor	–	–	IC50	149 µM
CCOC(=O)/C=C/C(C[C@@H]1CCNC1=O)NC(=O)[C@H](Cc1ccccc1)NC(=O)C(NC(=O)OCc1ccccc1)C(C)C (stereo partly drawn)	rep main protease	enzyme activity, inhibitor	–	–	IC50	85 µM
CCC(C(=O)Nn1cccc1)n1cccc2nc(SCc3ccc(F)cc3)nc1-2 (stereo not drawn)	rep papain-like protease	enzyme activity	–	–	IC50	2.46 ± 0.65 µM
O=C1C=CC(=O)c2cn(Cc3ccccc3)cc21	rep main protease	enzyme activity, inhibitor	–	–	IC50	< 10 µM
CCCCCCCCCCCCCCCC(=O)N[C@@H](CCC(=O)NCCOCCOCCC(=O)NCCOCCOCCC(=O)NCCCC[C@H](NC(=O)[C@H](CC(=O)O)NC(=O)[C@H](CC(C)C)NC(=O)[C@H](Cc1ccc(O)cc1)NC(=O)[C@H](CCCCN)NC(=O)[C@H](CO)NC(=O)[C@H](Cc1ccc(O)cc1)NC(=O)[C@H](CC(=O)O)NC(=O)[C@H](CO)NC(=O)[C@@H](NC(=O)[C@H](Cc1ccccc1)NC(=O)[C@@H](NC(=O)CNC(=O)[C@H](CCC(N)=O)NC(=O)[C@@H](CO)NC(=O)[C@@H](N)Cc1c[nH]cn1)[C@@H](C)O)[C@@H](C)O)C(=O)N[C@@H](CCCNC(=N)N)C(=O)N[C@@H](CCCNC(=N)N)C(=O)N[C@@H](C)C(=O)N[C@@H](CCC(N)=O)C(=O)N[C@@H](CC(=O)O)C(=O)N[C@@H](Cc1ccccc1)C(=O)N[C@H](C(=O)N[C@@H](CCC(N)=O)C(=O)N[C@@H](Cc1c[nH]c2ccccc12)C(=O)N[C@@H](CC(C)C)C(=O)N[C@@H](CC(C)C)C(=O)N[C@@H](CC(N)=O)C(=O)N[C@H](C(=O)NCC(=O)NCC(=O)N1CCC[C@H]1C(=O)N[C@@H](CO)C(=O)N[C@@H](CO)C(=O)NCC(=O)N[C@@H](C)C(=O)N1CCC[C@H]1C(=O)N1CCC[C@H]1C(=O)N1CCC[C@H]1C(=O)N[C@@H](CO)C(N)=O)[C@@H](C)O)C(C)C)C(=O)O	–	–	male rhesus monkeys	subcutaneous, 20 µg/kg once daily, 28 days	serum cholesterol	2.75 ± 0.34 mmol/L
CCC(C(=O)Nn1cccc1)n1cc(F)cc2nc(SCc3ccc(F)cc3)nc1-2 (stereo not drawn)	rep papain-like protease	enzyme activity	–	–	IC50	9.72 ± 0.46 µM
Cc1ccc(CNC(=O)c2ccc(F)c(F)c2)cc1C(=O)N[C@H](C)c1cccc2ccccc12	rep papain-like protease	enzyme activity, inhibitor	–	–	IC50	0.31 ± 0.03 µM
CCC(C(=O)Nc1ccccc1F)n1cccc2nc(SCc3ccc(F)cc3)nc1-2 (stereo not drawn)	rep papain-like protease	enzyme activity	–	–	IC50	7.57 ± 1.18 µM
COC(=O)[C@H](C[C@@H]1CCNC1=O)NC(=O)[C@H](Cc1ccccc1)NC(=O)/C=C/c1ccc2c(c1)OCO2	rep main protease	enzyme activity, inhibitor	–	–	IC50	> 25 µM
CCC(C(=O)Nn1cccc1)n1c(SCc2ccc(F)cc2)nc2ncccc21 (stereo not drawn)	rep papain-like protease	enzyme activity	–	–	IC50	9.52 ± 0.06 µM
CC(C)C[C@H](NC(=O)[C@H](CO)NC(=O)[C@H](CCCCN)NC(=O)[C@H](CC(C)C)NC(=O)C(C)(C)NC(=O)[C@H](CCCCN)NC(=O)[C@H](CCC(=O)O)NC(=O)C(C)(C)NC(=O)[C@H](CC(C)C)NC(=O)[C@H](CC(N)=O)NC(=O)[C@@H]1CCCN1C(=O)[C@H](CC(C)C)NC(=O)[C@H](Cc1ccccc1)NC(=O)CNC(=O)[C@H](NC(=O)[C@@H](N)Cc1ccc(O)cc1)[C@H](C)O)C(N)=O	OPRD1	ligand displacement, radioligand	–	pH 7.5, cell membranes	Ki	0.023 µM
Cc1ncc(CO)c(C23OC4(O)CC(O)(CC(O)(C4)O2)O3)c1O	Replicase polyprotein 1ab, nsp13 helicase (rep, Severe acute respiratory syndrome-related coronavirus, UniProt P0C6X7)	–	SARS coronavirus	–	IC50	3 µM
CCOC(=O)/C=C/C(Cc1ccccc1)NC(=O)[C@H](Cc1ccccc1)NC(=O)C(NC(=O)OCc1ccccc1)C(C)C (stereo partly drawn)	rep main protease	enzyme activity, inhibitor	–	–	IC50	11 µM
CCC(C(=O)Nc1ccc(F)cc1)n1c(SCc2ccc(F)cc2)nc2ncccc21 (stereo not drawn)	rep papain-like protease	enzyme activity	–	–	IC50	> 20 µM
CCOC(=O)/C=C/C(C[C@@H]1CCNC1=O)NC(=O)[C@H](Cc1ccc(F)cc1)NC(=O)C(NC(=O)c1cc(C)on1)C(C)C (stereo partly drawn)	rep main protease	enzyme activity, inhibitor	–	–	IC50	> 100 µM
CCC(C(=O)Nc1cccc(F)c1)n1cccc2nc(SCc3ccc(F)cc3)nc1-2 (stereo not drawn)	rep papain-like protease	enzyme activity	–	–	IC50	> 20 µM
C=CC(=O)NC(CC(=C)C)C(=O)N1CC(C(=O)NC(C(=O)NC)C(C)CC)C(c2cccc(C(F)(F)F)c2)C1 (stereo not drawn)	rep main protease	enzyme activity, inhibitor	–	–	IC50	61.7 µM
O=C[C@H](C[C@@H]1CCNC1=O)NC(=O)[C@H](Cc1ccccc1)NC(=O)/C=C/c1ccc2c(c1)OCO2	rep main protease	enzyme activity, inhibitor	–	–	IC50	> 25 µM
O=c1[nH]c2cc(Cl)cc(Cl)c2c(O)c1Sc1nnnn1-c1ccc(O)cc1	rep main protease	enzyme activity, inhibitor	–	–	IC50	< 10 µM and 10.6 µM
CCOC(=O)/C=C/C(C[C@@H]1CCNC1=O)NC(=O)[C@H](Cc1ccc(F)cc1)NC(=O)C(NC(=O)OCc1ccccc1)C(C)C (stereo partly drawn)	rep main protease	enzyme activity, inhibitor	–	–	IC50	> 100 µM

Some of these lines once more:
Structure (SMILES)	tested on	test	system	conditions	endpoint	result
CCC(C(=O)Nn1cccc1)n1cccc2nc(SCc3ccc(F)cc3)nc1-2 (stereo not drawn)	rep papain-like protease	enzyme activity	–	–	IC50	2.46 ± 0.65 µM
CCOC(=O)/C=C/C(C[C@@H]1CCNC1=O)NC(=O)[C@H](Cc1ccccc1)NC(=O)C(NC(=O)OCc1ccccc1)C(C)C (stereo partly drawn)	rep main protease	enzyme activity, inhibitor	–	–	IC50	85 µM
COC(=O)[C@H](C[C@@H]1CCNC1=O)NC(=O)[C@H](Cc1ccccc1)NC(=O)/C=C/c1ccc2c(c1)OCO2	rep main protease	enzyme activity, inhibitor	–	–	IC50	> 25 µM
O=C1C=CC(=O)c2cn(Cc3ccccc3)cc21	rep main protease	enzyme activity, inhibitor	–	–	IC50	< 10 µM
C=CC(=O)NC(CC(=C)C)C(=O)N1CC(C(=O)NC(Cc2ccco2)C(=O)NC)C(c2cccc(C(F)(F)F)c2)C1 (stereo not drawn)	rep main protease	enzyme activity, inhibitor	–	–	IC50	47.8 µM
